Measured values pooled from the literature.
Every numbered part comes from another study and shows a few of its results, in no order.

Series 1
Target: Sal-like protein 4, full length isoform B (SALL4, Homo sapiens, UniProt Q9UJQ4-2, residues 1-616)
Method: universal PBM
Form: double-stranded DNA, one strand shown
Medium: in vitro
Concentration: not given
Notes: 8-mer, flanks averaged, mean of replicates
Direction: higher = stronger binding
Quantity: E-score
GCTTGACA: -0.0832
CCCCGAGC: -0.266
AGTTGCTG: -0.172
CATCCAAG: -0.157
AATATAAC: 0.392
GTAGATCA: 0.012
CTTTTCTC: 0.0711
ACTATTAG: 0.0798

Series 2
Target: Replicase polyprotein 1ab, polymerase (rep, Severe acute respiratory syndrome coronavirus 2, UniProt P0DTD1)
Observed: enzyme activity
Action: inhibitor
Concentration: 20 µM
Quantity: inhibition
Oc1cc2c(cc1O)CN(C(=S)NCCc1ccc(Cl)cc1)CCC2: 0.95%
O=C(O)[C@@H]1C[C@H](CP(=O)(O)O)CCN1: -5.26%
O=C1NN(C(=O)Nc2ccc(Br)cc2)[C@@H](c2ccccc2)[C@@H]1c1ccccc1: 0.81%
C[C@H](NC(=O)C(C)(C)Oc1ccc(C(F)(F)F)cn1)[C@@H](Cc1ccc(Cl)cc1)c1cccc(C#N)c1: -2.01%
Cn1c(C#N)ccc1-c1ccc2c(c1)C(C)(C)OC(=S)N2: -3.87%
COc1cc2c(NC3CCN(C(C)C)CC3)nc(C3CCCCC3)nc2cc1OCCCN1CCCC1: 9.65%
COc1c(N2CCNC(C)C2)c(F)cc2c(=O)c(C(=O)O)cn(C3CC3)c12 (stereo not shown): -0.67%
O=c1[nH]c2cc(C(F)(F)F)c(N3CCOCC3)cc2n(CP(=O)(O)O)c1=O: 3.03%
OCc1ccc(O[C@@H]2O[C@H](CO)[C@@H](O)[C@H](O)[C@H]2O)cc1: -2.74%
CC(=O)O[C@@H]1C[C@H]2C(C)(C)C(=O)C=C[C@]2(C)[C@H]2CC[C@@]3(C)[C@H](c4ccoc4)OC(=O)[C@H]4O[C@]43[C@@]21C: 11.1%
Cc1c(N)nc([C@H](CC(N)=O)NC[C@H](N)C(N)=O)nc1C(=O)N[C@H](C(=O)N[C@H](C)[C@@H](O)[C@H](C)C(=O)N[C@H](C(=O)NCCc1nc(-c2nc(C(=O)NCCC[S+](C)C)cs2)cs1)[C@@H](C)O)[C@@H](O[C@@H]1O[C@@H](CO)[C@@H](O)[C@H](O)[C@@H]1O[C@H]1O[C@H](CO)[C@@H](O)[C@H](OC(N)=O)[C@@H]1O)c1cnc[nH]1: 2.5%
CC(C)=CCC[C@](C)(O)[C@H]1CC[C@]2(C)[C@@H]1[C@H](O)C[C@@H]1[C@@]3(C)CC[C@H](O)C(C)(C)[C@@H]3CC[C@]12C: -3.39%
C[C@H](Nc1cc(NS(=O)(=O)N2CCC2)nc(SCc2cccc(F)c2F)n1)[C@@H](O)CO: 2.22%
CC1(N2CCC(n3c([C@@H]4CCCNC4)nc4ccccc43)CC2)CCCCCCC1: -2.55%
CNC(=O)c1ccc(N2C(=S)N(c3cnc(C#N)c(C(F)(F)F)c3)C(=O)C23CCC3)cc1F: -3.16%
Cc1ccc(C(=O)c2ccc(CC(=O)O)n2C)cc1: 17.4%
Cc1c(N)c(=O)n(-c2ccccc2)n1C: -9.81%
CC1(C)C(=O)N(CCN2CCC(C(=O)c3ccc(F)cc3)CC2)c2ccccc21: -0.07%
CC(=O)N(O)CCCCCNC(=O)CCC(=O)N(O)CCCCCNC(=O)CCC(=O)N(O)CCCCCN: 1.18%
CCN1CCN(C(=O)N[C@@H](C(=O)N[C@@H]2C(=O)N3C(C(=O)O)=C(CSc4nnnn4C)CS[C@H]23)c2ccc(O)cc2)C(=O)C1=O: 17%
CC(C)Cc1ccc([C@H](C)C(=O)O)cc1: -0.8%
CC1(C)S[C@@H]2[C@H](NC(=O)[C@H](NC(=O)N3CCNC3=O)c3ccccc3)C(=O)N2[C@H]1C(=O)O: -0.98%

Series 3
Cell line: HEK-293T/ACE2
Observed: pseudovirus infection
Organism: VSV pseudotyped with SARS-CoV-2 spike
Concentration: concentration not given
Relative to: vehicle-treated
Quantity: GFP-positive cells
C[C@@H]1CCO[C@H]2Cn3cc(C(=O)NCc4ccc(F)cc4F)c(=O)c([O-])c3C(=O)N12.[Na+]: 89.8%
Cc1[nH]c2ccccc2c1CCNCc1ccc(/C=C/C(=O)NO)cc1: 43.5%
N#CC[C@H](C1CCCC1)n1cc(-c2ncnc3[nH]ccc23)cn1: 68.4%

Series 4
Target: Replicase polyprotein 1ab, main protease (rep, Severe acute respiratory syndrome coronavirus 2, UniProt P0DTD1)
Observed: enzyme activity
Action: inhibitor
Concentration: 20 µM
Notes: primary screen
Quantity: inhibition
O=[N+]([O-])C=Cc1ccc2c(c1)OCO2: 98.8%
O=C(Nc1ccc2c(O)cc(S(=O)(=O)O)cc2c1)Nc1ccc2c(O)cc(S(=O)(=O)O)cc2c1: 68.7%
O=C1OC2(c3cc(I)c(O)c(I)c3Oc3c2cc(I)c(O)c3I)c2c(Cl)c(Cl)c(Cl)c(Cl)c21: 101%
C=Cc1c(C)c2cc3nc(c(CC(=O)O)c4[nH]c(cc5nc(cc1[nH]2)C(C)=C5CC)c(C)c4C(=O)O)C(CCC(=O)O)C3C (stereo not shown): 50.8%

Series 5
Target: Interferon regulatory factor 5, full length, phosphomimetic (IRF5, Homo sapiens, UniProt Q13568-2, residues 1-514, S451D/S453D/S456D/S462D)
Method: protein-binding microarray
Form: double-stranded DNA, one strand shown
Medium: in vitro
Concentration: 940 nM top
Notes: 60-bp whole probe
With: salmon DNA 0.4 mg/ml
Relative to: random background probes
Direction: higher = stronger binding
Quantity: fitted relative affinity
All sequences stand within: GCCTAGCAC … GTCTTGATTCGCTTGACGCTGCTG
TCATTTATGTACTCTCTCACTGTGCTA: 1.2 z-score
GACGGTTTCCTTATCCTAACGTGCTAG: 1.56 z-score
AGAGTGCTCATGCTTCTTAGGGTGCTA: -0.568 z-score
GACGAACTGACTATCGAGACGTGCTAG: -0.156 z-score
TCACATTTTTCCCTCTGACTGTGCTAG: 1.45 z-score
TTAGGTTGCGGTATCGGTTAGTGCTAG: 5.13 z-score
GGAGTTTTCAGTCCTGGGATGTGCTAG: 0.191 z-score
TTAGATTTCGGTTCCGGTTAGTGCTAG: 4.05 z-score

Series 6
Target: Hepatocyte nuclear factor 3-beta, forkhead domain (FOXA2, Homo sapiens, UniProt Q9Y261, residues 142-269)
Method: protein-binding microarray
Form: double-stranded DNA, one strand shown
Medium: in vitro
Concentration: not given
Notes: k-mer, scored over probes, only values ≥0.25
Direction: higher = stronger binding
Quantity: E-score
Residues (chain): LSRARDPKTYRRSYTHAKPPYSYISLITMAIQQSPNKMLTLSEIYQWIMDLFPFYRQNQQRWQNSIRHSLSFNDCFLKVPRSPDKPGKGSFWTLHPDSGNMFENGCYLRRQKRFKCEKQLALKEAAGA
AATATAAC: 0.382
ATGATATC: 0.296
TACTGTAA: 0.258
GAACAATA: 0.264

A few entries again (series 1):
CATCCAAG: -0.157
CCCCGAGC: -0.266
GCTTGACA: -0.0832
